Experimental data collected from several papers.
Lines come from different studies, so protocols differ.
Effect on: cell growth or viability

COc1ccc(NC(=O)c2c(Nc3ccccc3)sc(C#N)c2NC(=O)CNc2ccccc2)cc1 — viability (HCT-116; SRB; 10 nM, 48 h): 92.6%
CC(=O)Nc1ccc(Oc2nnc(-c3ccc(Cl)cc3)c3ccccc23)cc1 — viability (HepG2; MTT; 1.25 µM, 24 h): 7.13%
CC(=O)Nc1cccc(-n2c(=O)n(C3CC3)c(=O)c3c(Nc4ccc(I)cc4F)n(C)c(=O)c(C)c32)c1 — viability (SW-620; resazurin; 0.1 µM, 72 h): 24%
CCc1c(C)c2ccc(OCC(=O)NNC(=S)Nc3ccccc3)c(C)c2oc1=O — viability (MDA-MB-231; MTT; 1000 µg/mL): 2.85%
Cc1ccc(C(CS(=O)(=O)c2ccccc2)=NNc2nc(-c3ccc(OCCCCOc4ccc(-c5csc(NN=C(CS(=O)(=O)c6ccccc6)c6ccc(C)cc6)n5)cc4)cc3)cs2)cc1 — viability (SK-MEL-23; MTT; 1.6 µM, 48 h): 65.7%
COc1ccc(NC(=O)Nc2cccc(-c3cn(Cc4ccc(C)cc4)nn3)c2)cc1 — viability (Huh-7; CCK-8; 50 µM, 72 h): 10.8%
CC(=NNC(N)=S)c1ccc(Nc2nnc(-c3ccc(Cl)cc3)c3ccccc23)cc1 — viability (HepG2; MTT; 0.156 µM, 24 h): 46.5%
COc1ccc(NC(=O)c2c(Nc3ccccc3)sc(C(=O)NN=Cc3ccccc3)c2NC(C)=O)cc1 — viability (HCT-116; SRB; 100 µM, 48 h): 58.4%
C=CCNC(=S)NNC(=O)COc1ccc2c(C)c(CC)c(=O)oc2c1C — viability (MDA-MB-231; MTT; 31.25 µg/mL): 99.9%
Cc1ccc(C(CS(=O)(=O)c2ccccc2)=NNC2=NC(=O)C(=NNc3ccccc3)S2)cc1 — viability (SK-MEL-23; MTT; 100 µM, 48 h): 21.2%
CNC(=O)c1cc(Oc2ccc(NC(=O)Nc3ccc(Cl)c(C(F)(F)F)c3)cc2)ccn1 — viability (HCT-116; SRB; 10 µM, 48 h): 37.1%
CC(=NNC(=O)COc1ccc2c(C)c(Cc3ccccc3)c(=O)oc2c1C)c1ccc(Br)cc1 — viability (HCT-116; MTT; 25 µg/mL): 43.5%
O=C(Nc1ccc(Oc2nnc(-c3ccc(Cl)cc3)c3ccccc23)cc1)c1ccccc1 — viability (HepG2; MTT; 0.156 µM, 24 h): 54.4%
COc1ccc(NC(=O)c2c(Nc3ccccc3)sc(C#N)c2NC(=O)CNc2ccccc2Cl)cc1 — viability (HCT-116; SRB; 1 nM, 48 h): 99.2%
CC(=NNC(=O)c1ccncc1)c1ccc(Nc2nnc(-c3ccc(Cl)cc3)c3ccccc23)cc1 — viability (HepG2; MTT; 0.156 µM, 24 h): 82.9%
COc1ccc(NC(=O)c2c(Nc3ccccc3)sc(C(=O)NN=Cc3ccc(OC)c(O)c3)c2NC(C)=O)cc1 — viability (HCT-116; SRB; 1 µM, 48 h): 46.4%
O=C(Nc1ccc(Oc2nnc(-c3ccc(Cl)cc3)c3ccccc23)cc1)c1cccc([N+](=O)[O-])c1 — viability (HepG2; MTT; 0.312 µM, 24 h): 99.6%
N#CC(C(=O)Nc1cccc(C(F)(F)F)c1)=C1Sc2nc3ccc(S(=O)(=O)N4CCCC4)cc3nc2S1 — viability (MDA-MB-231; MTT; 12.5 µM, 24 h): 37.8%
COc1ccc(NC(=O)c2c(Nc3ccccc3)sc(C#N)c2NC(=O)CNc2ccc(Cl)cc2)cc1 — viability (HCT-116; SRB; 1 nM, 48 h): 100%
CC(=NNC(=O)c1ccccc1)c1ccc(Nc2nnc(-c3ccc(Cl)cc3)c3ccccc23)cc1 — viability (HepG2; MTT; 10 µM, 24 h): 3.3%
NC(=S)NN=C(CS(=O)(=O)c1ccccc1)c1ccc(F)cc1 — viability (SK-MEL-23; MTT; 100 µM, 48 h): 32.7%
COc1ccc(NC(=O)c2c(Nc3ccccc3)sc(C(=O)NN=Cc3ccc(Br)cc3)c2NC(C)=O)cc1 — viability (HCT-116; SRB; 10 nM, 48 h): 91.3%

Some of these lines once more:
COc1ccc(NC(=O)c2c(Nc3ccccc3)sc(C(=O)NN=Cc3ccccc3)c2NC(C)=O)cc1 — viability (HCT-116; SRB; 100 µM, 48 h): 58.4%
COc1ccc(NC(=O)c2c(Nc3ccccc3)sc(C#N)c2NC(=O)CNc2ccccc2Cl)cc1 — viability (HCT-116; SRB; 1 nM, 48 h): 99.2%
O=C(Nc1ccc(Oc2nnc(-c3ccc(Cl)cc3)c3ccccc23)cc1)c1ccccc1 — viability (HepG2; MTT; 0.156 µM, 24 h): 54.4%
